# Assay results of several laboratories.
# A part holds a random share of what one study measured. Changes are numbered by the printed parent chain.

# Set 1 — target: CCND2, cyclin fold, Cln2 fusion (human); method: yeast growth competition, sequencing; medium: yeast; notes: weak parent motif; baseline: not given; reading: higher = stronger binding
# Parent: MASTL docking peptide (human); PMIAKNLMCELDE; partner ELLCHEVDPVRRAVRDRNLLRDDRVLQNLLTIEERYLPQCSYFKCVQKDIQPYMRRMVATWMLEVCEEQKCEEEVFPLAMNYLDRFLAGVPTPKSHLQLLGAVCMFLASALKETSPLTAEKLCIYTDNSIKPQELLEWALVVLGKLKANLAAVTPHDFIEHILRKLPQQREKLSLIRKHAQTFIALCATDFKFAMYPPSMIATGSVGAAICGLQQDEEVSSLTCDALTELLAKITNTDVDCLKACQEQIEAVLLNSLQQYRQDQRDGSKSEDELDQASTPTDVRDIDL
Change,normalised enrichment score
M8G,-0.00788
M2C,0.155
E10N,0.204
L7H,-0.921
A4G,-0.314
A4I,0.00592
L7A,-0.0296
M2A,-0.141
E10C,0.0407
I3T,0.0782
C9W,-0.321
K5D,0.319
N6P,0.00804
M2Q,0.165
K5G,-0.193
A4H,0.152
A4K,0.31
I3L,0.126
C9L,0.15
M8R,0.168
E10P,-0.0869
A4N,0.368
N6L,-0.155
K5H,0.0158
C9E,-0.0648

# Set 2 — method: RNA Bind-n-Seq; molecule type: RNA; medium: in vitro; concentration: 365 nM; baseline: no-protein control; reading: higher = stronger binding
# Target: RNA binding protein fox-1 homolog 2, RRM domain, GST-SBP tag (RBFOX2, Homo sapiens, UniProt O43251-10, residues 100-194)
# Notes: natural RNA segment, single round, ends assumed
# Constant ends, left off below: GGGAGUUCUACAGUCCGACGAUC … UGGAAUUCUCGGGUGCCAA
# Construct (chain): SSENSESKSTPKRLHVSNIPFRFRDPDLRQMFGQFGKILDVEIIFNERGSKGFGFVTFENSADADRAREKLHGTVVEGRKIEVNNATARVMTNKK
Strand,RBNS enrichment (R)
AAAAAUUUGAACACUGGCUAAAGAUAAUUGCUAUUUAUUUUUACAAGAAGUUUAUUCUCAUUUGGGAGAUCUGGUGAUCUCCCAAGCUAUCUAAAGUUUGUUAGAUAGCU,0.803
UAUCACAAACUUUAAAAUGUGAAGAUUCCUGUCUCUCCCGUGGUUUUAAAGGCAAGUGGUGUCCAAGAAACAGAGCAUCCUUCCUGCCGUUCAACGCUCAGCUUUUCCGA,0.534
GAUGAAACUGGUCAGAAUCUGUAAAUUACUUAGUUUAUAUCCACUUUGAGCAGGUAUCAAAUGAUUUAGGAUCCUUAAAAUUACAUUCUAAUAAUUAAGUUAUGUGGAAA,0.295
UAAUCCUGUAUUAUUUCUUCUACUUUGUUUUGUGUAAAAGGGGAAAAAAUAAAAAAAGCUGGAAUCUCAUGUCUCACUUUCUUUAUAACUUAGCCAAUAUAAUAUUUAUG,0.619
AGAGAUCACAUCGCCUCUUAGAGACCAUGUCACCUCCUAUCUGUCACCCUUCCUCUUCCUGUCACAGUGACAGGUCUUCACUAGCUGGCUUCUUUCUGUACUUGCUGACU,0.294
UGUGUCCUUUAUUGUAGCAUUGCUGUCUGCAAGGGAGCCCCUAGCCCCUGGCAGACAUAGCUGCUUCAGUGCCCCUUUUCUCUCUGCUAGAUGGAUGUUGAUGCACUGGA,0.363
CUUCAGGCGGGUCUCAGGAGCUUCUAAAAAUCCGCAUGGCUCUCCUGAGAGUGGACAGAGGAGAGGAGAGGGUCAGAAAUGAACGCUCUUCUAUUUCUUGUCAUUACCAA,0.465
ACAGAGCAACCCAGGUUAAACACAGCCCAUGCACAAAGCCACAGGCUAAAUCCUGUGGAAUUGUUUUUAAUGACUGAAUUUAACCAUUUUCAUAGUUGGUUCCUGGAGGU,0.251
AAAAGAAAAUCCCGGUGCUUGCAGUAGAGUGAUAGGACAUUCUAUGCUUACAGAAAAUAUAGCCAUGAUUGAAAUCAAAUAGUAAAGGCUGUUCUGGCUUUUUAUCUUCU,0.538
CCUGGUUUUGUACAUAUCUAACUCUGUUCUCUUUUGGUUGUUCAGAAACUGGAUUUUUUUUUUCUUAAGCAGUGCUUAAUUUGUGUUUUUUAAUUUUGAUUCAGAAGUAG,0.879
AAAAACAGCAAGACCAGAAGUGCCCAGCCCCUUGCUGACAGAUUGCUUCGUGUGUGUCCCCACACAACACACACUUAAAGCCAUCUGUCACUCUGUAAGUUAUUUUGUAC,0.4
AAUGUUCACCCUUCCAAGAUCUUAUAUUAAAGAAAAAAUUUUAAAAAGCUUAUAUAUUUGUAGCAAAGUUAUUCUUAAAUAUGAAUUAUGUUAUAACUUAGUGACUUUUG,1.03

# Set 3 — method: DHFR PCA, deep sequencing; medium: yeast; added: (+)-ABA 2500 µM; baseline: wild-type fitted maximum; reading: higher = stronger binding
# Target: ABI1, truncated, D143A, DHFR fusion (Arabidopsis thaliana)
# Notes: methotrexate growth selection, single substitutions
# Parent: PYL1, truncated, DHFR fusion (Arabidopsis thaliana); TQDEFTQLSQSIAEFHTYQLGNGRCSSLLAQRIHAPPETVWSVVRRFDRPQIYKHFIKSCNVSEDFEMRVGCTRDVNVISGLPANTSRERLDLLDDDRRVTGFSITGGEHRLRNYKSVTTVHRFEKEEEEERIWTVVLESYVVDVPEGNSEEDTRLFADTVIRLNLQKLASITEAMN
Change,relative binding score [%]
E128R,103
G102Q,90.9
L29K,91.3
S9K,118
V118A,93.1
Y115N,-16.8
F15V,80.2
Y18G,92.2
A35N,59.5
V145F,74.3
L82S,72
S104C,85.1

# Set 4 — method: protein binding microarray; molecule type: double-stranded DNA, one strand shown; medium: in vitro; concentration: not given; baseline: not given; reading: higher = stronger binding
# Target: Histone acetyltransferase KAT6A, winged helix 2, GST fusion (KAT6A, Homo sapiens, UniProt Q92794, residues 85-181)
# Notes: 8-mer, flanks averaged, mean of 2 arrays, mostly near background
# Construct (chain): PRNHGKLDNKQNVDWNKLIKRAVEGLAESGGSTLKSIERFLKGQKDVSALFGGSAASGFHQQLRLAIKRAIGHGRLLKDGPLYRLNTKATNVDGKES
Strand,E-score
CATATTAA,0.122
GCCTGCGC,0.168
GATGTCGA,0.0537
TCAAGTAA,-0.122
CCTCAGCA,0.0674
TACCACTA,-0.0647
TCAGTGAA,0.0188
ACAGAGAA,-0.0651
GTCTGACA,-0.0562
TCAAGAAA,0.223
ATGTATAA,-0.171
AGGGATTA,-0.0362
CAAGCTCG,0.104
CGGAAGGC,0.076
GTTAAATA,-0.0726
CGGTCTGC,0.145
GACGATCA,-0.0976
AGGTGTCG,-0.103
AACCATAG,0.0252
TAGCATGA,0.0344
AGGGCGTA,-0.0507
CTTCGAAA,-0.00346

# Set 5 — target: BIRC6 UBC core domain (UniProt Q9NR09); method: yeast two-hybrid; medium: yeast; notes: mostly zero background; baseline: not given; reading: higher = stronger interaction
# B1: MKRN1 RING domain (UniProt Q9UHC7); chain FAVQRSKDMVCGICMEVVYEKANPSERRFGILSNCNHTYCLKCIRKWRSAKQFESKIIKSCPECRITSNFVIPSE
# B2: RNF38 RING domain (UniProt Q9H0F5); chain PNNHQSEQTLCVVCMCDFESRQLLRVLPCNHEFHAKCVDKWLKANRTCPICRADASEVHRDS
# B3: NEURL1 RING domain (UniProt O76050); chain VTPGLGQWSDECTICYEHAVDTVIYTCGHMCLCYACGLRLKKALHACCPICRRPIKDIIKT
# B4: TRIM24 RING domain (UniProt O15164); chain EAARLNLLDTCAVCHQNIQSRAPKLLPCLHSFCQRCLPAPQRYLMLPAPMLGSAETPPPVPAPGSPVSGSSPFATQVGVIRCPVCSQECAERHII
# B5: RNF208 RING domain (UniProt Q9H0X6); chain SSAAAGEPLECPTCGHSYNVTQRRPRVLSCLHSVCEQCLQILYESCPKYKFISCPTCRRETVLFTDYG
# B6: VPS41 RING domain (UniProt P49754); chain KGVLVDEENICESCLSPILPSDAAKPFSVVVFHCRHMFHKECLPMPSMNSAAQFCNICSAKNRGPGSAI
# B7: TRIM5 RING domain (UniProt Q9C035); chain ILVNVKEEVTCPICLELLTQPLSLDCGHSFCQACLTANHKKSMLDKGESSCPVCRISYQPENIRP
# B8: SH3RF2 RING domain (UniProt Q8TEC5); chain DDLTLLDLLECPVCFEKLDVTAKVLPCQHTFCKPCLQRVFKAHKELRCPECRTPVFSNIEAL
# B9: TRIM13 RING domain (UniProt O60858); chain MELLEEDLTCPICCSLFDDPRVLPCSHNFCKKCLEGILEGSVRNSLWRPAPFKCPTCRKETSATGINS
# B10: TRAF5 RING domain (UniProt O00463); chain FVERLEERYKCAFCHSVLHNPHQTGCGHRFCQHCILSLRELNTVPICPVDKEVIKSQEVFK
# B11: DTX4 RING domain (UniProt Q9Y2E6); chain QKVRHPPDEDCTICMERLTAPSGYKGPQPTVKPDLVGKLSRCGHVYHIYCLVAMYNNGNKDGSLQCPTCKTIYGVKTGTQ
# Construct (chain): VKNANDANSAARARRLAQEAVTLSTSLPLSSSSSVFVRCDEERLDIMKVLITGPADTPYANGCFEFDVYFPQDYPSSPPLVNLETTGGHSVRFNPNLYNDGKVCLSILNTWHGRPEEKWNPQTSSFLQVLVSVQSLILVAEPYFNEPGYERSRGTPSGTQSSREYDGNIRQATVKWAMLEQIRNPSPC
Sequence,lacZ reporter activity
VEPSEENSKDCVVCQNGTVNWVLLPCRHTCLCDGCVKYFQQCPMCRQFVQESFALC (CGRRF1 RING domain (UniProt Q99675)),0
B1 (MKRN1 RING domain),0
B2 (RNF38 RING domain),0
B3 (NEURL1 RING domain),0
B4 (TRIM24 RING domain),0
GAAPGPEAAECLVCSELALLVLFSPCQHRTVCEECARRMKKCIRCQVVVSKKLRPD (MIB2 RING domain (UniProt Q96AX9)),0
B5 (RNF208 RING domain),0
DHGAVGQEMCCPICCSEYVKGEVATELPCHHYFHKPCVSIWLQKSGTCPVCRCMFPPPL (PJA1 RING domain (UniProt Q8NG27)),0
B6 (VPS41 RING domain),0
B7 (TRIM5 RING domain),0
ASLPTSEEDLCPICYAHPISAVFQPCGHKSCKACINQHLMNNKDCFFCKTTIVSVEDWE (RNF123 RING domain (UniProt Q5XPI4)),0
B8 (SH3RF2 RING domain),0
B9 (TRIM13 RING domain),0
B10 (TRAF5 RING domain),0
B11 (DTX4 RING domain),0
FQGDVDEDLICPICSGVLEEPVQAPHCEHAFCNACITQWFSQQQTCPVDRSVVTVAHLRP (RNF41 RING domain (UniProt Q9H4P4)),0

# Excerpt of the above (set 3):
Change,relative binding score [%]
Y115N,-16.8
F15V,80.2
Y18G,92.2
A35N,59.5
V145F,74.3
L82S,72
